Measured values from different studies.
Each numbered part is a random draw from the data of one study; scales do not carry over between parts.
UniProt Q9C0B0, sequence (30-357, looked up): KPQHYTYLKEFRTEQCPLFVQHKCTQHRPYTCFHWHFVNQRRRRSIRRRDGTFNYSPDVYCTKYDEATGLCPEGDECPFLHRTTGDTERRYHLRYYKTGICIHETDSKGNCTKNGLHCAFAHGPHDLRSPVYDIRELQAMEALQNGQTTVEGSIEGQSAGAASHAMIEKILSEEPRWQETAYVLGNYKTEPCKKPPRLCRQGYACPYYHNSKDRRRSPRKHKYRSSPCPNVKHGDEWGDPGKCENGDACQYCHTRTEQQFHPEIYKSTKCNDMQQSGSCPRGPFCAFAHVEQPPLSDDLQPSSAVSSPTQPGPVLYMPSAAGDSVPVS

Sample 1
Organism: Saccharomyces cerevisiae
Read-out: binding
Technique: yeast competitive growth sequencing
Molecule type: peptide
Setting: cyclin B2-Cln2 chimera
Direction: direction not given
Molecule	enrichment score
FQDSGYNELKSCSFDN	0.859
PARRRLRLSVDEVSSP	-0.129
IVLICAKRSLCAAFSV	-1.31
PAKRRLELGE	0.631
SAVPLILPQAPSGPSY	1.16
KPHVSDEEEEEPPFYH	1.24
GLPDFVFQQQPVESEA	0.525
DTERAHSTLDEDLERW	0.87
KPKPVKPVTFSTGIKM	1.19
VLVRTSACRSLFGPVD	-0.0227

Sample 2
Target: Histone acetyltransferase KAT6A, both winged helices, GST fusion (KAT6A, Homo sapiens, UniProt Q92794, residues 1-181)
Technique: protein binding microarray
Molecule type: double-stranded DNA, one strand shown
Sample: in vitro
Concentration: not given
Setting: 8-mer, flanks averaged, mean of 2 arrays, mostly near background
Relative to: not given
Direction: higher = stronger binding
Residues (chain): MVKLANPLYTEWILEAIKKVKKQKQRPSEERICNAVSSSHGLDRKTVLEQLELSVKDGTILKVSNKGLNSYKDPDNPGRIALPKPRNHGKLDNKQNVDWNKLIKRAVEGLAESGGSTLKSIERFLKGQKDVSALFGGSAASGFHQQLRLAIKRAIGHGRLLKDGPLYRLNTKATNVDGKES
Strand	E-score
AATCTCGA	-0.0737
CCAAACAC	-0.117
GCAGCTTA	0.00338
AAACAACA	-0.151
GATAAGGC	-0.069
GTGAATCA	-0.0198
GCTTGACC	0.0557
CCCTTAAC	-0.138
GCAAAAAC	0.0867
ACGACATC	-0.0625
AGCTAGTA	-0.13
AGTGATAC	-0.105
ATTCTATA	0.0251
GCTGCAAC	0.0975
GAATGGTA	-0.283
AAGGCATT	-0.289
AACCACTA	-0.0745
CCAGTTTA	-0.203
GGATTGAA	-0.0648
CGGAGGGA	-0.082
CCGCTACG	0.307
CTCACCAG	-0.257
CTATTGAG	-0.167
ATGACAGC	-0.0635
ATGGACAC	-0.0844

Sample 3
Target: RNA binding protein fox-1 homolog 2, RRM domain, GST-SBP tag (RBFOX2, Homo sapiens, UniProt O43251-10, residues 100-194)
Technique: RNA Bind-n-Seq
Molecule type: RNA
Sample: in vitro
Concentration: 365 nM
Setting: natural RNA segment, single round, ends assumed
Relative to: no-protein control
Direction: higher = stronger binding
Constant ends, left off below: GGGAGUUCUACAGUCCGACGAUC … UGGAAUUCUCGGGUGCCAA
Construct (chain): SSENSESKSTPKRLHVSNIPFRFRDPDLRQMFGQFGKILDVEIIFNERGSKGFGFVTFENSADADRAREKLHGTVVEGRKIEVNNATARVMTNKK
Strand	RBNS enrichment (R)
GUCGCCUGCCCCCAGCACUCCUCUGUCUCUGCUCUUGCCUGCACCCUUCCUCCUCCUUUGCCUAGGAGGCCUUCUCGCAUUUUCUCUAGCUGAUCAGAAUUUUACCAAAA	3
GUAUAUACCCAAAGGACUAUAAAUCAUGCUGCUAUAAAGACACAUGCACACGUAUGUUUAUUGUGGCAUUAUUCACAAUAGCAAAGACUUGGAACCAACCCAAAUGUCCA	0.889
UUUAUCAUUCAGAAAUCUUGCAUUUUCAAAAAUUCAGUGCAAGCGCCAGGCGAUUUGUGUCUAAGGAUACGAUUUUGAACCAUAUGGGCAGUGUACAAAAUAUGAAACAA	0.356
GUGGGAUACUUUCUGCACCACUCUGAGUGAUUGUUACCUUGUAACCACUAGUAAGCUUUGUUCAUGCAGCUCAUAGUCCUCCCAAACAUAUGGGGAAUGUGUGUUUAUGU	0.551
UUGGAGUGUAACCGGGGAGGGAAAUUAUAGCAUGCUUGCAGACAGACCUGCUCUAGCGAGAGCUGAGCAUGUGUCCUCCACUAGAUGAGGCUGAGUCCAGCUGUUCUUUA	1.57
UAUCUGUCUGGACAUAGUUGUGUUCCUCUAAAUUGGAUGUACUAAAUAGUUUACAAGUUAUCCUACUCCACAGAUUUUGGUAUGUUUGUUAUCUGGACAUGAUUUUGCUA	0.394
GCUCUGCGUGUCACCUGUGCUUCGGGCCCUUCCCACAGGACAUUUCUCUAAGAGAACAAUGUGCUAUGUGAAGAGUAAGUCAACCUGCCUGACAUUUGGAGUGUUCCCCU	0.137
GGCCAGUGUUCAGCAGGAUCAUGCCUUCUGUGUCUGGAAGAGGCGGCAGAGGCAACAGUGUUUAGGAUUUGGGUUAUCAUAAGGUGUUAAGAGUCCCUUGUUAAAGGGGC	0.401
AAUUCAUCAAAUAGAUUGCUCCUAAAUCCAAUUGUUAAAAUUGGAUCAGAAUAAUUAUCACAGGAACUUAAAUGUUAAGCCAUUAGCAUAGAAAAACUGUUCUCAGUUUU	0.549
ACCUCCUGCCAAAGAGAGCUUUUGCUGAGCCGGGACACUUGCCUCUCCACACAGUGGCCCCAGCCGUGACCACCCUGUACCAGUCCCUGCUGUGUCCUGUCUACCUGUGU	0.253
ACUUUGGCUUUUUCAUAUACCUAGUGGUGCCUUAUCAUAAUAGCACUGUUACAUGAAAUAAGCCCCUACCUUCUUACUUUCUGGUUUGUUGAAAAAAUACACUGGUGCUC	0.421
CCUGGCUGGCUGAGGUGGUGUGAUAGAGGUCUGUGGUAAACAGCAGAACUUAGGGUGCAGACUGACUUAUUGAUUUCCACCUUGGCAAUGGCAAUAAAGCAUUUUGUAAG	1.7

Sample 4
Target: Ras GTPase-activating protein-binding protein 1, C-terminal RGG region (G3BP1, Homo sapiens, UniProt Q13283)
UniProt Q13283, sequence (whole entry, looked up): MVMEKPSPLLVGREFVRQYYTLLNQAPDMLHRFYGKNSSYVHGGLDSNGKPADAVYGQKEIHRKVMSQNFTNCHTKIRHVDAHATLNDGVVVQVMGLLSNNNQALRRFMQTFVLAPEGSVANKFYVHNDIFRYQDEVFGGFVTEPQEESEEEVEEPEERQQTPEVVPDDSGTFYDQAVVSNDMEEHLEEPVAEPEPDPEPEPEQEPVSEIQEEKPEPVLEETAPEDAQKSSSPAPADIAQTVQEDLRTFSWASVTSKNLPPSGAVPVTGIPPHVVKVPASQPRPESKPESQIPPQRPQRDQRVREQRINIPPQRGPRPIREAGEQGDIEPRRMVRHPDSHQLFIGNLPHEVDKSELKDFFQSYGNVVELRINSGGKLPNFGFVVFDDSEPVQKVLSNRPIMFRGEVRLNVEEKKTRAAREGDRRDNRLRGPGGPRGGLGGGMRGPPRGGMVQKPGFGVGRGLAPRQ
Technique: RNA Bind-n-Seq
Molecule type: RNA
Sample: in vitro
Concentration: 1 µM
Setting: whole 134-nt RNA, ends assumed
Added: 150 mM KCl
Relative to: input library
Direction: higher = stronger binding
Constant ends, left off below: GGGAGUUCUACAGUCCGACGAUC … UGGAAUUCUCGGGUGUCAAGG
Strand	log2 enrichment
UUUUCUUCUGGGGCAUUUAUCCGUGCUGAUCUUGGUGAAUGGGGCAUGAGUCUAACGAUCAGAGCCCCUAGUGUAGAUUACAGAAACACU	-0.112
UCAAGUCCUGUGCUACACAUCGUAUGUACCGAAUCGGGUUUGGGUUUGGUUUGGAAAGUAUUAUGUUACGCCGUUCGGAUCUGCACUUCC	-0.794
CAAGUCCUGUGCUACACAUCGUAUGUACCGAAUCGGGGUUUGGUUUGGGGUUUGGGAAAGUAUUAUGUUACGCCGUUCGGAUCUGCACUU	-0.119
UGGGAGGUGGAUUUUGUUGAUUUUUUUAGCUCAUUUCCAGGGGUGGGAAUUUUUUUUUAAUAUGUGUCAUGAAUAAAGUUGUUUUUGAAA	1.79
CUGUGCUACACAUCGUAUGUACCGAAUCAAAUUUUUUUAAACCCCCCCAAACCCCCCCAAAAAAGUAUUAUGUUACGCCGUUCGGAUCUG	-1.17
CCUCAAGUCCUGUGCUACACAUCGUAUGUACCGAAUCGGUUUUUGGUGGAGGAAAGUAUUAUGUUACGCCGUUCGGAUCUGCACUUCCAG	-0.596
CUCAAGUCCUGUGCUACACAUCGUAUGUACCGAAUCGGGGCCGGCCGGCCGGGGAAAGUAUUAUGUUACGCCGUUCGGAUCUGCACUUCC	-0.927
CAAGUCCUGUGCUACACAUCGUAUGUACCGAAUCGGAAAAGGGAAAAGGGAAAAGGAAAGUAUUAUGUUACGCCGUUCGGAUCUGCACUU	-1.86
UGGCCCUGGUGGCAUGCGGGGAGGAAGAGGUGGCCUCAUGGAUCGUGGUGGUCCCGAUGGAAUGUUCAGAGGUGGCCGUGGUGGAGACAG	1.93
ACCAUGCAGGUGGGCAUCUUUGGGAAGUGGGGCAAGGGGGGGAUGGGGAGGGGGGUAACACUUUGGGAACAGGUGGUCCCAGGUCGUUUC	2.09
UGGGAGGUGGAUUUUGUUUAUUUUUUUAGCUCAUUUCCAGGGGUGGGAAUUUUUUUUUAAUAUGUGUCAUGAAUAAAGUUGUUCUUGAAA	3.96
CAAGUCCUGUGCUACACAUCGUAUGUACCGAAUCGGUUUGGUUUUUUUGGUUUGGAAAGUAUUAUGUUACGCCGUUCGGAUCUGCACUUC	-1.62
CUCAAGUCCUGUGCUACACAUCGUAUGUACCGAAUCGGGGCGGGGCGGGGCGGAAAGUAUUAUGUUACGCCGUUCGGAUCUGCACUUCCA	1.03
CUUAUGCCUUCCCCACUGGUAUUGAGGGUUUUGAUAAUAAAUUGGUAGGAAAAAAAAGUACCUCCUAGAAGGAAGCCUUCCCCACCAUUU	-0.552

Sample 5
Target: Max-binding protein MNT, bHLH-zipper, MAX partner unstated (MNT, Homo sapiens, UniProt Q99583, residues 220-300)
Technique: protein-binding microarray
Molecule type: double-stranded DNA, one strand shown
Sample: in vitro
Concentration: not given
Setting: k-mer, scored over probes, only values ≥0.25
Direction: higher = stronger binding
Residues (chain): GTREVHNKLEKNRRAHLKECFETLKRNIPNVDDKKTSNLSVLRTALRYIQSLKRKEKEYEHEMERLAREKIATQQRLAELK
Strand	E-score
GGTGACAC	0.255
CCACCACG	0.35
ACGGCGTG	0.403
ACGAGACA	0.266
CGCGTGTA	0.458
AGCGTGAT	0.352
GCATGCAA	0.362
TCCCACGA	0.312
ACGTGGAA	0.43
GGGTGGAC	0.256
CTGCACGC	0.412
CATGCGTA	0.436
CCAACCAC	0.273
AACGTGTC	0.398
AGCATGTC	0.357
ATGCGCTC	0.273
CACATGGC	0.483
GCGTGTCC	0.367
ACACACGT	0.415
CCCGTGAC	0.324
AGCATGAG	0.353
GAACACGA	0.302
AAGCACGA	0.292
ATGGCCAC	0.274
CCACCCCC	0.257

Single results of other studies
Strand	target	test	system	setting	scale	quantity	value
GGGAGUUCUACAGUCCGACGAUCAAGCCAUCUUUUCCACAUUUUCUGUAAAUAAUGGAUAAUCAUUUUAAAAAUUUUUAUUUUCCGUGCUGUUUUAACAAUGCCGACCGAUCAUAAAUGUACUUGCUGAAUUCAAUCAUUUUUCAACAGAGGAUUGAGCAUCA	RING finger protein unkempt homolog, zinc fingers 1-6, SBP tag (UNK, Homo sapiens, UniProt Q9C0B0, residues 30-357)	RNA Bind-n-Seq	RNA, in vitro	100 nM, RNA with constant flanks, ends assumed	relative to: input RNA pool, higher = stronger binding	bound/input enrichment	0.58 ratio

Excerpt of the above (sample 1):
Molecule	enrichment score
SAVPLILPQAPSGPSY	1.16
IVLICAKRSLCAAFSV	-1.31
GLPDFVFQQQPVESEA	0.525
PARRRLRLSVDEVSSP	-0.129
DTERAHSTLDEDLERW	0.87
KPKPVKPVTFSTGIKM	1.19
KPHVSDEEEEEPPFYH	1.24
VLVRTSACRSLFGPVD	-0.0227
FQDSGYNELKSCSFDN	0.859
PAKRRLELGE	0.631
